Measured values collected from several papers.
Lines come from different studies, so protocols differ.
Chymotrypsinogen A: Chymotrypsinogen A (Bos taurus, UniProt P00766)
PPARA ligand-binding domain: Peroxisome proliferator-activated receptor alpha, ligand-binding domain (PPARA, Homo sapiens, UniProt Q07869)
Sequence of UniProt Q07869 (whole entry, looked up): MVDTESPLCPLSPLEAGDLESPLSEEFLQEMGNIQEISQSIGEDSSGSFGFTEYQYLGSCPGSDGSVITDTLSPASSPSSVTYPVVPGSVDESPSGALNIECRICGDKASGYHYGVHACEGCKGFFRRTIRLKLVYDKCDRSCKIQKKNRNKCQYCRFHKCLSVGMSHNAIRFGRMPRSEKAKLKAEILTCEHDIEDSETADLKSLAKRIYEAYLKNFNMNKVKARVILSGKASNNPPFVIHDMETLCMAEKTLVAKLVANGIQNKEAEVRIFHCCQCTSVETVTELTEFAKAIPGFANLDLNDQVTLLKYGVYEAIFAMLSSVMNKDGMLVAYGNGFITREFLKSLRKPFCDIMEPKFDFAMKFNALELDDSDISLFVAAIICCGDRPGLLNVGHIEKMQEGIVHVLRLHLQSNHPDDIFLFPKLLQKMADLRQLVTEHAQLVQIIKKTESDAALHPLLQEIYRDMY
CHEK1: Serine/threonine-protein kinase Chk1 (CHEK1, Homo sapiens, UniProt O14757)
Sequence of UniProt O14757 (whole entry, looked up): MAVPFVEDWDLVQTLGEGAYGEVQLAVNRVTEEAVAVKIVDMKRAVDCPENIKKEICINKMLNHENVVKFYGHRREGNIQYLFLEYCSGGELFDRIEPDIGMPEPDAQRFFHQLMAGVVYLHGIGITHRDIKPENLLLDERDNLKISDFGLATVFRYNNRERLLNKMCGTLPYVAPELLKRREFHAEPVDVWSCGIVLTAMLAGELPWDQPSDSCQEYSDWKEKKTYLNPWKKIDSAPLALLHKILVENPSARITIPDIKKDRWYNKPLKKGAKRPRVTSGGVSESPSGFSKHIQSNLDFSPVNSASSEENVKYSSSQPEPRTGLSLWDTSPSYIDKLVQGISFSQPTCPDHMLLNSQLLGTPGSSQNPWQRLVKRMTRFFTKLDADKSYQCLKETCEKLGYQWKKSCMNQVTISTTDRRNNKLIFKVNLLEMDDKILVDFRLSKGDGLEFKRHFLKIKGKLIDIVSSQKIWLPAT
GBA2: Beta-glucosidase (GBA2, Homo sapiens, UniProt Q9HCG7)
Sequence of UniProt Q9HCG7 (whole entry, looked up): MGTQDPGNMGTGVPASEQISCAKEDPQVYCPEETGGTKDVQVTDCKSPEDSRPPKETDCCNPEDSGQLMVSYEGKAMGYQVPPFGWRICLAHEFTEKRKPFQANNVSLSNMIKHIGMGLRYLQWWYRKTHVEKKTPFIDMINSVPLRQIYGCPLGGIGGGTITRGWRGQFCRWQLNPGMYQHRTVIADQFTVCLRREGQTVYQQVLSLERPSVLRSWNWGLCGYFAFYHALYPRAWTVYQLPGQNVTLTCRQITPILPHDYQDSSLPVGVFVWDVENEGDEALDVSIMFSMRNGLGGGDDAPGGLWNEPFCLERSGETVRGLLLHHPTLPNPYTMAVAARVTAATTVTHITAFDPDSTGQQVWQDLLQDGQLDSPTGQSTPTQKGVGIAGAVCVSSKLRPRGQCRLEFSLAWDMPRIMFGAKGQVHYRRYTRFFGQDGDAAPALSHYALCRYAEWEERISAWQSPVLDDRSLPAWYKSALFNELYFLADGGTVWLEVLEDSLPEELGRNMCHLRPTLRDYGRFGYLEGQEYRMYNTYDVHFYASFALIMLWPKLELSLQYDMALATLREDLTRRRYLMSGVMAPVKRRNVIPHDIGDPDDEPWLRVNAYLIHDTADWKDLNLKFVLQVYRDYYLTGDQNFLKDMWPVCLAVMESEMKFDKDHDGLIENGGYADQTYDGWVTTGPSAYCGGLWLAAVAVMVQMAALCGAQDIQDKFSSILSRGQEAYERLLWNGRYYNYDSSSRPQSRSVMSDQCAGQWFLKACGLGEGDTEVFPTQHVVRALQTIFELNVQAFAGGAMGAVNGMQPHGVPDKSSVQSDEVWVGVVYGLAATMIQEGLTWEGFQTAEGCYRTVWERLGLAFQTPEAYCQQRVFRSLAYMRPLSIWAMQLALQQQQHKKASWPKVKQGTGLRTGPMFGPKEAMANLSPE
Sequence of UniProt Q8TDC3 (whole entry, looked up): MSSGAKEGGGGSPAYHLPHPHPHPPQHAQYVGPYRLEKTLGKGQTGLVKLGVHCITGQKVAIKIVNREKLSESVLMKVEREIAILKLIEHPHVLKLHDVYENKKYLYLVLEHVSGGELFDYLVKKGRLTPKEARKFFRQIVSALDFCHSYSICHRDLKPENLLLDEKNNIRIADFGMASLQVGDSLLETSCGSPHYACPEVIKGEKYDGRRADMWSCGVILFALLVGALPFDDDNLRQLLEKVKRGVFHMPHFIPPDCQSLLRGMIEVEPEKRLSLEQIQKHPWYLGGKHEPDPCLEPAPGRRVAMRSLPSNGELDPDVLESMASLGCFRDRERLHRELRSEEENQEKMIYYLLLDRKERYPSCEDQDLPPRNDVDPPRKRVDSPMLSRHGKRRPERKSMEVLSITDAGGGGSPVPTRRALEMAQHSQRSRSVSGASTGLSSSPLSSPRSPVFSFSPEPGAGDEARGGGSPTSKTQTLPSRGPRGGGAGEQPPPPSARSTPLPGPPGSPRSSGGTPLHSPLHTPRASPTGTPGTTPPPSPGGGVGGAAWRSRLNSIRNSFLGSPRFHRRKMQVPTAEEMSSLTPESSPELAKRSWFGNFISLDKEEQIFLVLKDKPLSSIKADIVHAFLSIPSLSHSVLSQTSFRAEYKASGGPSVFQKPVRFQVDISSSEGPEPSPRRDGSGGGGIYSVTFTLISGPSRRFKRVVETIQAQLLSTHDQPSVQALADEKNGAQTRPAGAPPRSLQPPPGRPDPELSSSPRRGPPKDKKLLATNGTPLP
Sequence of UniProt Q16539 (whole entry, looked up): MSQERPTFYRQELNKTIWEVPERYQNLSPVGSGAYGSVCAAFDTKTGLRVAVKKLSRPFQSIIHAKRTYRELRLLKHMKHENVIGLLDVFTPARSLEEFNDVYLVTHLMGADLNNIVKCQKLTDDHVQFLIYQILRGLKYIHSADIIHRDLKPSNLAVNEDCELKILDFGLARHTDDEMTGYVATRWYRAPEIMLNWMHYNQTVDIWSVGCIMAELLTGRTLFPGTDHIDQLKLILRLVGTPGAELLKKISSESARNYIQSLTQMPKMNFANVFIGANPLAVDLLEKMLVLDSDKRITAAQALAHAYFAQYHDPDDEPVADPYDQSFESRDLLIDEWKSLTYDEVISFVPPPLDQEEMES
Sequence of UniProt Q96PN6 (whole entry, looked up): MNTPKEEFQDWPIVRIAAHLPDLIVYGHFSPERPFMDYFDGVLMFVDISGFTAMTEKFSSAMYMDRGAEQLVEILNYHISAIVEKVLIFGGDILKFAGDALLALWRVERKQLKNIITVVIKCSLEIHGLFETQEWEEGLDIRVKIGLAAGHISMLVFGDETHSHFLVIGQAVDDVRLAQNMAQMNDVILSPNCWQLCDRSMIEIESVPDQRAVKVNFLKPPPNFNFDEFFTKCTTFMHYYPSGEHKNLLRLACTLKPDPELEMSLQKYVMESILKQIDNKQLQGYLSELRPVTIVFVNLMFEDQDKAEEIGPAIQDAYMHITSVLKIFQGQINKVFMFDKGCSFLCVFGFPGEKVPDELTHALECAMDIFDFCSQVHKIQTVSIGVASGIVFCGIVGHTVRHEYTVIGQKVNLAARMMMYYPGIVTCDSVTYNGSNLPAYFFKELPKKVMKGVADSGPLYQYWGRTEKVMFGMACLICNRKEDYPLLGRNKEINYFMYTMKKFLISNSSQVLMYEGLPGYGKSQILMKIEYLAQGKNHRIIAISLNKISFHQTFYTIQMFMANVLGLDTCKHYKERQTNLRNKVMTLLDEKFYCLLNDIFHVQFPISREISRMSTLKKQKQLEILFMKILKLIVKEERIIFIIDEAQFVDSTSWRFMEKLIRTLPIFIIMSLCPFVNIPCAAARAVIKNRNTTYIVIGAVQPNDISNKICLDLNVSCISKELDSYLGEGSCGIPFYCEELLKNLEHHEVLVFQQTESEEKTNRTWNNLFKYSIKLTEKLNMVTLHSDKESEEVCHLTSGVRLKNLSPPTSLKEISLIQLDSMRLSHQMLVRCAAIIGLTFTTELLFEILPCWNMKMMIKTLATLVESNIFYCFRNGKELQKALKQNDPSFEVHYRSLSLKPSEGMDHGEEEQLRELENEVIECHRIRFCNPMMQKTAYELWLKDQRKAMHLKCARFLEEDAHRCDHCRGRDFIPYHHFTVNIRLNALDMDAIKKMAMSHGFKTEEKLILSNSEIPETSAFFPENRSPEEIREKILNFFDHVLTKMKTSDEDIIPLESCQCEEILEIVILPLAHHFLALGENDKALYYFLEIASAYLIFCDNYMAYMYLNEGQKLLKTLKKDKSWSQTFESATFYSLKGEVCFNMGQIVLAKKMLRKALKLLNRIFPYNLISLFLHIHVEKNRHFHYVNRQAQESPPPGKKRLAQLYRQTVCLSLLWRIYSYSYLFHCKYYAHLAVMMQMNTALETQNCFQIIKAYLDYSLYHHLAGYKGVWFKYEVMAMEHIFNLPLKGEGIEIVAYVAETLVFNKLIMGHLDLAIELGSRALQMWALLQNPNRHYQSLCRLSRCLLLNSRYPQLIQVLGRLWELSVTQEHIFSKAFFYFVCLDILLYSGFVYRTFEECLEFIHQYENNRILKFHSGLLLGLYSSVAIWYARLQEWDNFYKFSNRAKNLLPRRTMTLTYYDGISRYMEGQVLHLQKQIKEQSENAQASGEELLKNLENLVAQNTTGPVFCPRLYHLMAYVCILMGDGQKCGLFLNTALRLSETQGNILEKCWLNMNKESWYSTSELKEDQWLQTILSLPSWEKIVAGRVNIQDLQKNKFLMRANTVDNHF
Sequence of UniProt Q9C768 (whole entry, looked up): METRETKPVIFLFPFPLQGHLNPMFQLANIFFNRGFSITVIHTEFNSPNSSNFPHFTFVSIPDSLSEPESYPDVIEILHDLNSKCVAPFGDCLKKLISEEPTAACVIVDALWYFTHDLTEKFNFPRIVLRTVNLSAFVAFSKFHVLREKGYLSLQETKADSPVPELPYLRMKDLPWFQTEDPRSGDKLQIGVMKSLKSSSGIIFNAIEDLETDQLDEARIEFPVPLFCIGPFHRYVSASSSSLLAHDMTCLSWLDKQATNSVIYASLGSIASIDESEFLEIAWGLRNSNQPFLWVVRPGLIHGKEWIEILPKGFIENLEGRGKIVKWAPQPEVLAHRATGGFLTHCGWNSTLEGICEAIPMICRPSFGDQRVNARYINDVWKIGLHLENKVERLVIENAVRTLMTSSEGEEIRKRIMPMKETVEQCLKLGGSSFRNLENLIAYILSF

Structure (SMILES)	target	test	test system	setting	IC50 [nM]
O=C(NCc1ccccc1)C(C(F)(F)F)C(F)(F)F	Chymotrypsinogen A	enzyme activity, inhibitor, fluorescence	–	–	63000
Cc1c(Cc2cccc(O[C@H](C)C(=O)O)c2Cl)c2ccc(C(=O)N[C@@H](C)c3ccc(C(C)(C)C)cc3)cc2n1C	PPARA ligand-binding domain	reporter gene, luciferase reporter	HEK293T, Gal4-PPARα LBD	–	27600
Nc1ncc(-c2cc(-c3cnn(CC(F)(F)F)c3)ncc2F)nc1C(=O)NC1CNCC(F)C1 (stereo not drawn)	CHEK1	enzyme activity, inhibitor, radiometric	–	–	140
C[C@@H](OCCCCCN1C[C@H](O)[C@@H](O)[C@H](O)[C@H]1CO)c1ccc(-c2ccccc2)cc1	GBA2	inhibitor, 4MU-β-D-glucopyranoside	HEK293T homogenates overexpressing GBA2	–	3
C[C@H](c1ccccc1)N1C(=O)C2=Nc3cccc(Cl)c3CN2C1=S	Mitogen-activated protein kinase 14 (MAPK14, Homo sapiens, UniProt Q16539)	enzyme activity, inhibitor	–	–	131
OC[C@@H]1[C@@H](O)[C@H](O)[C@@H](O)CN1CCCC/C=C\C12CC3CC(CC(C3)C1)C2	GBA2	inhibitor, 4MU-β-D-glucopyranoside	HEK293T homogenates overexpressing GBA2	–	5
CN(C1=C(c2ccccc2)C(=O)NC1=O)c1ccc(Cl)cc1	Sensor histidine kinase AirS (Staphylococcus aureus, UniProt Q2FX96)	autophosphorylation, inhibitor, BODIPY-FL-ATPγS in-gel fluorescence	–	lower bound of confidence interval	> 605000
Cc1nn(-c2cccc(N)c2)c(=O)c2cnc(Nc3ccc(N4CCNCC4)cc3)nc12	Serine/threonine-protein kinase BRSK1 (BRSK1, Homo sapiens, UniProt Q8TDC3)	enzyme activity, inhibitor	–	–	> 10000
Cc1cnc(Nc2ccc3c(c2)CCN(C(=O)/C=C/CC(C)C)C3)nc1-c1cnn(C(C)C)c1	Tyrosine-protein kinase JAK2 (JAK2, Homo sapiens, UniProt O60674)	enzyme activity, inhibitor, ADP detection	–	–	13.9
O=C(CCl)NCCC(c1ccccc1)c1ccco1 (stereo not drawn)	UGT76B1 (Arabidopsis thaliana, UniProt Q9C768)	enzyme activity, inhibitor	–	–	137000
CCn1c(C)c(Cc2cccc(OC(C)(C)C(=O)O)c2)c2ccc(C(=O)N[C@@H](C)c3cccc(C(C)(C)C)c3)cc21	PPARA ligand-binding domain	reporter gene, luciferase reporter	HEK293T, Gal4-PPARα LBD	–	50600
COc1ccc(Cl)cc1NC(=O)Nc1ccc(C(N)=O)cn1	CHEK1	enzyme activity, inhibitor	–	–	15.4
O=C(CCc1ccco1)N1C(=O)C2(NC(c3ccc(F)cc3)C3(C(=O)Nc4ccccc43)N2Cc2ccc(F)cc2)c2ccccc21 (stereo not drawn)	Phosphatidylinositol 4,5-bisphosphate 3-kinase catalytic subunit gamma isoform (PIK3CG, Homo sapiens, UniProt P48736)	enzyme activity, inhibitor, ADP detection	–	–	58.4
O=C1CCN1C(=O)NCc1ccccc1	Chymotrypsinogen A	enzyme activity, inhibitor, fluorescence	–	–	12000
OC[C@H]1[C@@H](O)[C@H](O)[C@@H](O)CN1CCCCCOCc1cccc(-c2ccccc2)c1	GBA2	inhibitor, 4MU-β-D-glucopyranoside	HEK293T homogenates overexpressing GBA2	–	2
N#Cc1cc(C(=O)c2cc(Br)ccc2O)cn(-c2ccccc2Cl)c1=O	Adenylate cyclase type 10 (Homo sapiens, UniProt Q96PN6)	enzyme activity, inhibitor, RapidFire mass spectrometry	–	–	5700
Cc1onc(-c2ccccc2)c1CNC(=O)C(C(F)(F)F)C(F)(F)F	Chymotrypsinogen A	enzyme activity, inhibitor, fluorescence	–	–	> 100000
Cn1cc(-c2ccc3[nH]c4c(c3c2)-c2nc(N)ncc2CCC4)cn1	Phosphatidylinositol 5-phosphate 4-kinase type-2 gamma (PIP4K2C, Homo sapiens, UniProt Q8TBX8)	target engagement in cells, BRET	–	–	260

Excerpt of the above:
Structure (SMILES)	target	test	test system	setting	IC50 [nM]
Cc1c(Cc2cccc(O[C@H](C)C(=O)O)c2Cl)c2ccc(C(=O)N[C@@H](C)c3ccc(C(C)(C)C)cc3)cc2n1C	PPARA ligand-binding domain	reporter gene, luciferase reporter	HEK293T, Gal4-PPARα LBD	–	27600
N#Cc1cc(C(=O)c2cc(Br)ccc2O)cn(-c2ccccc2Cl)c1=O	Adenylate cyclase type 10 (Homo sapiens, UniProt Q96PN6)	enzyme activity, inhibitor, RapidFire mass spectrometry	–	–	5700
